Experimental data gathered from unrelated publications.
Protocols differ between the studies behind these lines. ± marks the error that the study gave.

| SMILES | cell line | effect on | action | method | time | notes | IC50 |
| --- | --- | --- | --- | --- | --- | --- | --- |
| CCOc1cncc(-c2ccc(NC(=O)C3(c4ccnc(NS(=O)(=O)C5CC5)n4)CCOCC3)nc2)n1 | human Breast cancer | cell proliferation | inhibitor | CellTiter-Glo viability | 72 h | 0.1% DMSO | 10 µM |
| O=C(NCc1cc(F)cc(F)c1)[C@@]1(O)CCN(c2ccc3[nH]ccc3c2)C1=O | LXFL 529 | colony formation | – | – | – | – | > 10 µM |
| CC[C@@H](C)N1C(=O)C2=Nc3ccccc3CN2C1=S | CEM/ADR5000 (P-gp overexpressing, multidrug-resistant) | cell viability | – | resazurin | 72 h | – | inactive |
| [BH3-][P@+]1(c2ccccc2)CC[C@@H](O)CC1 | SW480 | cell growth or viability | – | MTT | 72 h | – | > 100 µM |
| C=CC(=O)N1CCCC(n2c(=O)c3ncccc3n(Cc3ccc(Oc4ccccc4)cc3)c2=O)C1 (stereo not shown) | SU-DHL-2 | cell growth or viability | – | MTT | 72 h | – | 20 µM |
| O=C(Nc1ccc(C(=O)Nc2ccc3[nH]ncc3c2)c(Cl)c1)Nc1cc(C(F)(F)F)ccc1F | KM12-Luc (TPM3-NTRK1) | cell growth | – | CellTiter-Glo | 72 h | – | 12.4 ± 2.37 µM |
| CCCCCCCCCCCC(=O)Oc1c(C)c(OC)c2c(/C=C/c3ccccc3)c(CCCCCCCCCC)c(=O)oc2c1C | KKU-M213 | cell growth or viability | – | SRB | 72 h | – | > 50 µM |
| Oc1cccc2c1[nH]c1c(C3=CC4(O)CCC=CCCCCN5CCC3C3(CC6C=CCCCCN6C43)C5)nccc12 (single isomer, unassigned; (+)) | KB | cell growth or viability | – | neutral red | 48 h | – | 0.78 µg/mL |
| CCCC(CCC)C(=O)[O][Pt]([NH2])([NH2])([Cl])([Cl])[O]C(=O)c1ccccc1OC(C)=O | LoVo oxaliplatin-resistant | cytotoxicity | – | MTT | 72 h | – | 1.69 ± 0.12 µM |
| O=C(NCC1(c2nc(-c3ccccc3)cs2)CCOCC1)c1cccc(-c2noc(C(F)(F)F)n2)c1 | SU-DHL-2 | cell growth or viability | – | CCK-8 | 7 days | – | 3.27 µM |
| CC(=O)Oc1ccccc1C(=O)[O][Pt]([NH2])([NH2])([Cl])([Cl])[O]C(=O)C(Cl)Cl | LoVo oxaliplatin-resistant | cytotoxicity | – | MTT | 72 h | – | > 3.12 µM |
| Cn1ccnc1S/C(=C\C=C(C#N)C#N)c1ccc(Cl)cc1 | HEK293T | viability | – | CellTiter-Glo | 48 h | – | 2.44 µM |
| COc1cc(C(=O)N/N=C/c2cccc3ccccc23)cc(OC)c1OC | SIL-ALL | cell viability | – | MTT | 48 h | – | 0.0423 µM |
| COc1ccc(CNc2ccc3c(c2)S(=O)(=O)C=C3)cc1 | glioblastoma cell lines | – | – | resazurin | 24 h | approximate value | ~2 µM |
| Nc1nnc(-c2ccccc2O)cc1N1CC2CCC(C1)N2c1ccnc(C#CCCN2CCCCCC2)c1 | normal prostate epithelial cells | cell viability | – | CellTiter-Glo | 168 h | – | 0.185 µM |
| CO[C@@H]1[C@@H](OC(=O)c2ccc(C)[nH]2)[C@@H](O)[C@H](Oc2ccc3c(O)c(NC(=O)c4c[nH]c(C(=O)Nc5c(O)c6ccc(O[C@@H]7OC(C)(C)[C@H](OC)[C@@H](OC(=O)c8ccc(C)[nH]8)[C@H]7O)c(C)c6oc5=O)c4C)c(=O)oc3c2C)OC1(C)C | K-Ras-driven tumour cell lines | viability | – | – | – | – | 1 to 4 µM |
| Cc1cc2cc(C(=O)N(Cc3ccc(C(F)(F)F)cn3)[C@H](C)c3ncccn3)ccc2nc1N | HCT-116 MTAP wild type | cell viability | – | CellTiter-Glo | 6 days | – | 0.854 µM |

| SMILES | cell line | effect on | action | method | time | notes | IC50 |
| --- | --- | --- | --- | --- | --- | --- | --- |
| CCNC(=S)NN=Cc1c2ccccc2cc2ccccc12.Cc1ccc(C(C)C)cc1.[Cl-].[Cl-].[Ru+2] | CCD-18Co | cytotoxicity | – | MTS | 48 h | – | 271 ± 8 µM |
| CCCC(=O)Oc1c(C)c(OC)c2c(c1C)OC(=O)[C@@H](CC)[C@]2(O)/C=C/c1ccccc1 (racemic) | KKU-M213 | cell growth or viability | – | SRB | 72 h | – | > 50 µM |
| Cn1ncc(-c2ccc3c(=O)[nH]nc(CN)c3c2)c1-c1c(F)c(Cl)cc(OC2CC2)c1C#N | A-172 | cell viability | inhibitor | CellTiter-Glo | 120 h | – | 0.02 µM |
| CC(=O)[O][Pt]([NH2])([NH2])([Cl])([Cl])[O]C(=O)CCC(C)C1CCC2C3CCC4CC(O)CCC4(C)C3CCC12C (stereo not shown) | LNCaP | cell growth or viability | – | MTT | 72 h | – | 3.9 µM |
| O=C1CCP(=O)(c2ccccc2)CC1 | SW480 | cell growth or viability | – | MTT | 72 h | – | > 100 µM |
| C=CCOc1c(C)c(OC)c(C(=O)/C=C/c2ccccc2)c(OCC=C)c1C | SH-SY5Y | cell growth or viability | – | SRB | 72 h | – | > 50 µM |
| O=C(Nc1ccc(C(=O)Nc2ccc3[nH]ncc3c2)c(Br)c1)Nc1cc(C(F)(F)F)ccc1F | KM12-Luc (TPM3-NTRK1) | cell growth | – | CellTiter-Glo | 72 h | – | 10.7 ± 0.91 µM |
| COc1c(C)c(OC(=O)c2ccc3ccccc3c2)c(C)c(O)c1C(=O)/C=C/c1ccccc1 | SH-SY5Y | cell growth or viability | – | SRB | 72 h | – | > 50 µM |
| CNS(=O)(=O)Nc1nccc(Cc2c(C)c3ccc(Oc4ncccc4F)cc3oc2=O)c1F | RERF-LC-A1 | cell viability | – | CellTiter-Glo | 7 days | – | > 1 µM |
| CCCCC(=O)Nc1ccc(-c2ccc3ncn(CCC)c(=O)c3c2)cn1 | HCC827, scrambled shRNA control | cell viability | – | CCK-8 | 72 h | – | 0.047 ± 0.006 µM |
| CCCCCCCC(=O)Oc1c(C)c(OC)c2c(/C=C/c3ccccc3)c(CCCCCC)c(=O)oc2c1C | KKU-M213 | cell growth or viability | – | SRB | 72 h | – | > 50 µM |
| O=C(Nc1ccc(F)c(C(=O)Nc2ccc3[nH]ncc3c2)c1)Nc1cc(C(F)(F)F)ccc1F | KM12-Luc (TPM3-NTRK1) | cell growth | – | CellTiter-Glo | 72 h | – | 19.2 ± 2.66 µM |
| CC(C)c1ccc(N(C)c2ccc3c(c2)OCC[C@H]3CNc2cnccc2C(=O)O)cc1 | RPMI-7951 | cell growth or viability | – | ATP luminescence | 7 days | – | ≥ 10 µM |
| NC(=O)c1ccc(-c2ccccc2Cl)c2c3c([nH]c12)CCC(N)C3 (stereo not shown) | BXPC-3 | cell growth or viability | – | – | 96 h | – | 0.0316 µM |
| O=C(CN1CCN(C(=O)c2ccc(F)cc2)CC1)Nc1cccc(C(=O)Nc2ccc3[nH]ncc3c2)c1 | KM12-Luc (TPM3-NTRK1) | cell growth | – | CellTiter-Glo | 72 h | – | > 50 µM |
| CC(C)Cc1ccc(C(C)C(=O)[O][Pt]([NH2])([NH2])([Cl])([Cl])[O]C(=O)C(Cl)Cl)cc1 (stereo not shown) | LoVo oxaliplatin-resistant | cytotoxicity | – | MTT | 72 h | – | > 3.12 µM |
| CCCCCCCCCCCC(=O)Oc1c(C)c(OC)c2c(c1C)OC(=O)[C@@H](CCCCCCCCCC)[C@]2(O)/C=C/c1ccccc1 (relative stereo) | KKU-M213 | cell growth or viability | – | SRB | 72 h | – | > 50 µM |

For quick reference, copied from above:
| SMILES | cell line | effect on | action | method | time | notes | IC50 |
| --- | --- | --- | --- | --- | --- | --- | --- |
| CC(=O)Oc1ccccc1C(=O)[O][Pt]([NH2])([NH2])([Cl])([Cl])[O]C(=O)C(Cl)Cl | LoVo oxaliplatin-resistant | cytotoxicity | – | MTT | 72 h | – | > 3.12 µM |
| CC(C)Cc1ccc(C(C)C(=O)[O][Pt]([NH2])([NH2])([Cl])([Cl])[O]C(=O)C(Cl)Cl)cc1 (stereo not shown) | LoVo oxaliplatin-resistant | cytotoxicity | – | MTT | 72 h | – | > 3.12 µM |
| O=C(Nc1ccc(C(=O)Nc2ccc3[nH]ncc3c2)c(Br)c1)Nc1cc(C(F)(F)F)ccc1F | KM12-Luc (TPM3-NTRK1) | cell growth | – | CellTiter-Glo | 72 h | – | 10.7 ± 0.91 µM |
| O=C(CN1CCN(C(=O)c2ccc(F)cc2)CC1)Nc1cccc(C(=O)Nc2ccc3[nH]ncc3c2)c1 | KM12-Luc (TPM3-NTRK1) | cell growth | – | CellTiter-Glo | 72 h | – | > 50 µM |
